Measured values from different studies.
Protocols differ between the studies behind these lines. ± gives the spread as reported.
Cell line: HCT-116

With NC(=O)NO the cell confluence was 8.79 ± 1.41% (cell growth, live-cell imaging; 500 µM, control at 90% confluence).
CN1CCN(c2ccc3[nH]c(-c4ccc5[nH]c(-c6ccc(C(F)(F)F)cc6)nc5c4)nc3c2)CC1 has a growth percent of 21.1% (SRB; 10 µM, 48 h).
For COc1ccc(NC(=O)c2cccc(-c3nc(NC(P(=O)(O)O)P(=O)(O)O)c4ccsc4n3)c2)cc1F, “lowest effective concentration” read at most 100 nM (Rap1A prenylation, inhibitor, Western blot).
For NC(=O)NOCCCCCCCCCCCCCC[P+](c1ccccc1)(c1ccccc1)c1ccccc1.O=C([O-])C(F)(F)F, the cell confluence was 80.4% (cell growth, live-cell imaging; 0.5 µM, control at 90% confluence).
For S=C([S][Au-][P+](CCCCCC[P+]([Au-][S]C(=S)n1cccn1)(c1ccccc1)c1ccccc1)(c1ccccc1)c1ccccc1)n1cccn1, the log10 TGI was over -4 (cell growth, NCI-60 screen; colon cancer).
O=[N+]([O-])c1cc(Br)c(O)c(C=NNc2ccccc2)c1 gave a TNF-α level of 25% (ELISA; culture supernatant; IC50, with: LPS).
COc1nc(NCc2cn(-c3ccc(C(=O)Nc4ccccc4)cc3)nn2)nc(OC)n1 has a necrotic cells of 3.83% (annexin V-FITC/PI; IC50, 24 h).
The cell confluence of NC(=O)NOCCCCCCCCCCCC[P+](c1ccccc1)(c1ccccc1)c1ccccc1.O=C([O-])C(F)(F)F is reported as 2.49 ± 0.28% (cell growth, live-cell imaging; 10 µM, control at 90% confluence).
CCCCN1CCN(c2ccc3[nH]c(-c4ccc5[nH]c(-c6cc(OC)c(OC)c(OC)c6)nc5c4)nc3c2)CC1 has a growth percent of 41.1% (SRB; 10 µM, 48 h).
The TGI of Cn1cncc1C1=CN(c2ncnc3[nH]cnc23)CCS1 is reported as 91.2 µM (colon cancer).
CC(=NN=C1NC(=O)C(C)S1)c1c(O)c2ccccc2oc1=O (centres unmarked) gave a selectivity index of over 2.61 (cell growth, MTT; reference: IC50 BJ-1 over HCT-116).
COc1nc(NCc2cn(-c3ccc(C(=O)Nc4ccc(C(F)(F)F)cc4)cc3)nn2)nc(OC)n1 — result for “apoptotic cells Late”: 19.5% (annexin V-FITC/PI; IC50, 24 h).
O=[N+]([O-])c1ccc(O)c(C=NNc2ccc(Br)cc2)c1 — result for “cells in G2/M phase”: 27.6% (cell cycle analysis; IC50, 24 h).
For O=C(O)c1ccc(Nc2c(-c3ccccc3)nc3ccccn23)cc1, the synergy score was -1.3 (cell viability; 72 h, with: camptothecin; direction not given).
With Cc1cc(-c2ccccc2)n(-c2nc(-c3ccc(Cl)cc3)c3c(NC(=O)c4ccccc4)nnc-3[nH]2)n1 the cell growth was 100% (SRB; 10 µM, NCI60 single-dose screen, colon cancer; reference: untreated).
NC(=O)NOCCCC[P+](c1ccccc1)(c1ccccc1)c1ccccc1.O=C([O-])C(F)(F)F has a cell confluence of 90.8% (cell growth, live-cell imaging; 200 µM, control at 90% confluence).
Cc1n[nH]c2nc(-c3ccc(Cl)cc3)c3c(NC(=O)c4ccccc4)nnc-3n12 has a cell growth of 101% (SRB; 10 µM, NCI60 single-dose screen, colon cancer; reference: untreated).
For NC(=O)NOCCCCCCCCCCCCCCCC[P+](c1ccccc1)(c1ccccc1)c1ccccc1.O=C([O-])C(F)(F)F, the cell confluence was 89.3% (cell growth, live-cell imaging; 0.1 µM, control at 90% confluence).
For CCCCCCCCCCCCCC(=O)N[C@@H](CCSC)C(=O)N[C@@H](C)C(=O)N[C@@H](CO)C(=O)N[C@@H](CCCNC(=N)N)C(=O)NCC(=O)N[C@@H](C)C(=O)N[C@@H](CC(C)C)C(=O)N[C@@H](CCCNC(=N)N)C(=O)N[C@@H](CCCNC(=N)N)C(=O)N[C@@H](CS)C(=O)N[C@@H](CC(C)C)C(=O)N[C@@H](CO)C(=O)N1CCC[C@H]1C(=O)NCC(=O)N[C@@H](CC(C)C)C(=O)N1CCC[C@H]1C(=O)N[C@@H](CCCNC(=N)N)C(=O)N[C@@H](CC(C)C)C(=O)N[C@@H](CC(C)C)C(=O)N[C@@H](Cc1c[nH]cn1)C(=O)N[C@@H](CC(C)C)C(=O)N[C@@H](CO)C(=O)N[C@@H](CCCNC(=N)N)C(=O)NCC(=O)N[C@@H](CC(C)C)C(=O)N[C@@H](C)C(N)=O, viability read “no effect” (cell viability, XTT; colon; concentration not given).
The TNF-α level of O=[N+]([O-])c1cc(I)c(O)c(C=NNc2ccccc2)c1 is reported as 88.7% (ELISA; culture supernatant; IC50, with: LPS).
The growth percentage of O=C1NC(c2ccccc2)(c2ccccc2)C(=O)N1Cc1cn(-c2cc3ccccc3oc2=O)nn1 is reported as 96.6% (NCI60 single-dose screen; 10 µM).
With CC(=NN=c1[nH]c(C)c(N=Nc2ccccc2)s1)c1c(O)c2ccccc2oc1=O the selectivity index was over 2.95 (cell growth, MTT; reference: IC50 BJ-1 over HCT-116).
Cc1nc2ccc(Br)cc2c(=O)n1/N=C/c1ccc(C(=O)O)cc1 has an IC50 of 572 ± 14.7 µM (cytotoxicity, LDH release; 24 h, 50% viability reduction).
The growth percent of CCCCN1CCN(c2ccc3[nH]c(-c4ccc5[nH]c(-c6ccc(C(F)(F)F)cc6)nc5c4)nc3c2)CC1 is reported as -70.7% (SRB; 10 µM, 48 h).
The selectivity index of CCOC(=O)c1sc(=NN=C(C)c2c(O)c3ccccc3oc2=O)n(C)c1C is reported as over 16.9 (cell growth, MTT; reference: IC50 BJ-1 over HCT-116).
With O=P1(C2CCCCC2)CCCCC1 the necrotic cells was 1.45% (annexin V/PI flow cytometry; IC50, 72 h).
The viability of O=C(NOC[C@H](O)CO)c1ccc(F)c(F)c1Nc1ccc(I)cc1F is reported as 74.5% (0.07813 µM, 72 h).
The IC50 of O=C1NCCc2[nH]c(-c3ccncc3)cc21 is reported as 1.26 µM (MTS; colon cancer).
O=[N+]([O-])c1cc(Br)c(O)c(C=NNc2ccc(C(F)(F)F)cc2)c1: “early apoptotic cells” 10.8% (annexin V; IC50).
For NC(=O)NOCCCCCCCCCC[P+](c1ccccc1)(c1ccccc1)c1ccccc1.O=C([O-])C(F)(F)F, the cell confluence was 1.74% (cell growth, live-cell imaging; 30 µM, control at 90% confluence).
For COc1cccc2c1C(=O)c1c(O)c3c(c(O)c1C2=O)C[C@@](O)(C(=O)CO)C[C@@H]3O[C@H]1C[C@H](N)[C@H](O)[C@H](C)O1, “cells in pre-G1 phase” read 24.7% (flow cytometry; 3.66 µM (IC50), 72 h).
Cn1cnc2c(F)c(Nc3ccc(Br)cc3F)c(C(=O)NOCCO)cc21 gave a viability of 83.2% (0.1562 µM, 72 h).

Excerpt of the above:
For COc1ccc(NC(=O)c2cccc(-c3nc(NC(P(=O)(O)O)P(=O)(O)O)c4ccsc4n3)c2)cc1F, “lowest effective concentration” read at most 100 nM (Rap1A prenylation, inhibitor, Western blot).
For NC(=O)NOCCCCCCCCCCCCCC[P+](c1ccccc1)(c1ccccc1)c1ccccc1.O=C([O-])C(F)(F)F, the cell confluence was 80.4% (cell growth, live-cell imaging; 0.5 µM, control at 90% confluence).
For S=C([S][Au-][P+](CCCCCC[P+]([Au-][S]C(=S)n1cccn1)(c1ccccc1)c1ccccc1)(c1ccccc1)c1ccccc1)n1cccn1, the log10 TGI was over -4 (cell growth, NCI-60 screen; colon cancer).
